# Experimental data pooled from the literature.
# Every numbered part comes from another study and shows a few of its results, in no order.

# Series 1
# Target: Ras GTPase-activating protein-binding protein 1, C-terminal RGG region (G3BP1, Homo sapiens, UniProt Q13283)
# UniProt Q13283, sequence (whole entry, looked up): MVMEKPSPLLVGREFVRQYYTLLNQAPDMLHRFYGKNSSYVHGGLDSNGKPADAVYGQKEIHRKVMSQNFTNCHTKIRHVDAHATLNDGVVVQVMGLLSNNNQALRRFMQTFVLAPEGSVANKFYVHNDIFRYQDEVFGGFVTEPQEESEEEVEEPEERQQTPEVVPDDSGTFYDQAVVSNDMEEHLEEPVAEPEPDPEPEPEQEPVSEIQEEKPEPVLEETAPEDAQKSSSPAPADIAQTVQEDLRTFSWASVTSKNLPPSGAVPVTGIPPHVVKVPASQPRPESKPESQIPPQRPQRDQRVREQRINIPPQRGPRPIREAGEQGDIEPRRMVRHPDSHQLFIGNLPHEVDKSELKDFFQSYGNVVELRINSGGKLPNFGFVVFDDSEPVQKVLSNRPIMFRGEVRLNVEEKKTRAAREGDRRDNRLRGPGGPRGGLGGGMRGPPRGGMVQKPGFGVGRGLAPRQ
# Technique: RNA Bind-n-Seq
# Form: RNA
# Matrix: in vitro
# Concentration: 1 µM
# Setting: whole 134-nt RNA, ends assumed
# Added: 150 mM KCl
# Baseline: input library
# Reading: higher = stronger binding
# Constant ends, left off below: GGGAGUUCUACAGUCCGACGAUC … UGGAAUUCUCGGGUGUCAAGG
Sequence,log2 enrichment
AAGUCCUGUGCUACACAUCGUAUGUACCGAAUCGGGUUUGGGUGGGUUUUUUUGGGAAAGUAUUAUGUUACGCCGUUCGGAUCUGCACUU,1.11
UAACUUUAGAGGAGGAUCUGAUGGAUAUGGCAGUGGACGUGGAUUUGGGGAUGGCUAUAAUGGGUGUGGAGGAGGACCUGGAGGUGGCAA,-0.421
UCCUGUGCUACACAUCGUAUGUACCGAAUCGGGAAAAAAGGAAAAAAGGGAAAAAAGGGGAAAGUAUUAUGUUACGCCGUUCGGAUCUGC,-1.56
UAACUUUAGAGGAGGAUCUGAUGGAUAUGGCAGUGGACGUGGAUUGGGGGAUGGCUAUAAUGGGUAUGGAGGAGGACCUGGAGGUGGCAA,-1.32
UGGCCCUGGUGGCAUGCGGGGACGAAGAGGUGGCCUCAUGGAUCGUGGUGGUCCCGGUGGAAUGUUCAGAGGUGGCCGUGGUGGAGACAG,2.49
UAACUUUAGAGGAGGAUCUGAUGGAUAUGGCAGUGGACGUGGAUUUGGGGAUGGCUAUAAUGGGUAUGGAGGAGGACCUAGAGGUGGCAA,-1.26
CACAGAAAACACGCACCCACACAGACACAGAGGGAAGGGGUUGGGAUGGGGACAGGGUGCACAGCAGGGCGGGGUAGGACCCCAGCCCCU,-0.6
GCAGGAAGUAAAAACAAAAAGAAAUGCUUCGGAUAGUGGCAGGGGUGGGGGUUGCUAAGGAAAGGGUGGGAUGGGAGUGGGUAAAGAGUU,1.76
AAGUCCUGUGCUACACAUCGUAUGUACCGAAUCGGGGUGGGGAAAGGGGUUUGGGGAAAGUAUUAUGUUACGCCGUUCGGAUCUGCACUU,2.73
CUGUGCUACACAUCGUAUGUACCGAAUCGGGAAAAAAAGGGAAAAAAAGGGAAAAAAAGGGAAAGUAUUAUGUUACGCCGUUCGGAUCUG,-1.68

# Series 2
# Target: Histone acetyltransferase KAT6A, winged helix 2, GST fusion (KAT6A, Homo sapiens, UniProt Q92794, residues 85-181)
# Technique: protein binding microarray
# Form: double-stranded DNA, one strand shown
# Matrix: in vitro
# Concentration: not given
# Setting: 8-mer, flanks averaged, mean of 2 arrays, mostly near background
# Baseline: not given
# Reading: higher = stronger binding
# Residues (chain): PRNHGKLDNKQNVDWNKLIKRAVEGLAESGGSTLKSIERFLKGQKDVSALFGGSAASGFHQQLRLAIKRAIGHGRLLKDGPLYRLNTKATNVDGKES
Sequence,E-score
CAGGTCAA,-0.0391
GAACGCAC,0.154
CGCATTGC,0.14
TAGGCACA,-0.0194
GCGCATCC,-0.0597
GTGTTGGA,-0.0159
ACTGGAAA,-0.118
CAATTGGG,-0.0227
GCATAGTA,-0.0241
CAGTTAGG,-0.0862
ATCCTTCG,-0.0306
ATCGAGTG,0.0948
CGGACGAA,0.244
CTACTAAC,0.137
ATTATAAC,-0.0203
TGGATTAA,-0.145
CGATATAG,0.0698
ATAACCCA,-0.157
ACCCGTGA,-0.0485
CCGGTGTC,-0.0201
ACGCCCGA,0.182
TAATGCGA,0.0101
TAGTACGA,-0.121
CTCAATCA,0.109
GGATCACC,-0.0646

# Series 3
# Target: Sal-like protein 4, full length isoform B (SALL4, Homo sapiens, UniProt Q9UJQ4-2, residues 1-616)
# Technique: universal PBM
# Form: double-stranded DNA, one strand shown
# Matrix: in vitro
# Concentration: not given
# Setting: 8-mer, flanks averaged, mean of replicates
# Reading: higher = stronger binding
# Construct (chain): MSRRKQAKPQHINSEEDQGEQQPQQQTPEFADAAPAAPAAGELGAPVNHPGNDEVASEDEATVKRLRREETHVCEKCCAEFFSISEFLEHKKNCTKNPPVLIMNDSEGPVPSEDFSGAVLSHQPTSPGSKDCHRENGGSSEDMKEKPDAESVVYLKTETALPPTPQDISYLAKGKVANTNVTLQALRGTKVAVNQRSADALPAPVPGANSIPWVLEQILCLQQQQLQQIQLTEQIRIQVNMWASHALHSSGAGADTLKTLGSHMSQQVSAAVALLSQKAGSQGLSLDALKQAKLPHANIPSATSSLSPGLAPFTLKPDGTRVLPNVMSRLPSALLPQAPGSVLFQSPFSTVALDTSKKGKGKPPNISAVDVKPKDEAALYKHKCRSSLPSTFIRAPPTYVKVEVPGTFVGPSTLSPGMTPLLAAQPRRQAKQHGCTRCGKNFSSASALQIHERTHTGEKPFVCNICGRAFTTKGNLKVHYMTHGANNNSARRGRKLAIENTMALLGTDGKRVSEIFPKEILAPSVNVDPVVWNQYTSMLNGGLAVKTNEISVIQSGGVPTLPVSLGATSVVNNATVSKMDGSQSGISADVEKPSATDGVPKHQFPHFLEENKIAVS
Sequence,E-score
GCGACTAC,-0.141
CAATGCCG,-0.109
ATGTTCGG,0.0509
ATTCCAAA,0.151
CGATATAC,0.0887
AAGTTACG,0.0946
AAACACGC,0.0214
AAGCTCCA,-0.102
CTCCAAGA,-0.137
CTCACTTA,0.0285
GCTCGGCC,-0.331
CGCTTAGC,-0.328
CAGATGTA,0.132
ATTGCTGC,-0.0648
CAGCCACA,-0.0578
AGCAGTCA,-0.236
GGCAGACC,-0.334
AACGGTCG,-0.0406
ACCTCTAT,0.0914
CAAGTTGA,-0.0603

# Series 4
# Target: RING finger protein unkempt homolog, zinc fingers 1-6, GST-SBP tag (UNK, Homo sapiens, UniProt Q9C0B0, residues 30-357)
# Technique: RNA Bind-n-Seq
# Form: RNA
# Matrix: in vitro
# Concentration: not given
# Setting: RNA with constant flanks, human and mouse sites, ends assumed
# Baseline: input RNA pool
# Reading: higher = stronger binding
# Constant ends, left off below: GGGAGUUCUACAGUCCGACGAUC … CAACAGAGGAUUGAGCAUCA
# Residues (chain): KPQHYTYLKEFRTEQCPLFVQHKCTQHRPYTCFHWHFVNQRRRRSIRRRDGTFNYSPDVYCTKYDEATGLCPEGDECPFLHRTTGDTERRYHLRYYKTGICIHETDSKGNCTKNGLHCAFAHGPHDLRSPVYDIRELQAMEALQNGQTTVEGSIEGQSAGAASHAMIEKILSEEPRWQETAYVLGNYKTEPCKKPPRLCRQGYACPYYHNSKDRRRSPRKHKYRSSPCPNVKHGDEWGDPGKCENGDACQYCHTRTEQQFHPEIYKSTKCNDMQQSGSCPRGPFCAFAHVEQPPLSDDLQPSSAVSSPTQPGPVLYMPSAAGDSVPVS
Sequence,bound/input enrichment [ratio]
UUGAAACUGUAUGACGUUGCUGUAUCAAAGUUGUAAAAUUAAGCAUUAUUUAUUGAAAACUAUGUAUUUUUUUGUAAAAACCUGAUCACACAAGAGAGUAUCAGUGGCUUGUGCUUUGUG,0.199
UUUUUAUGCGACCAUUGUCUCCGUGGUUGGGCUGCAUGUAGUUUUGGCAAUUUUUGUUUUUAUAGUAUGGAAGGAAGGUUUGCCACAGUGGCGGGAAAACAAAAAUGAUUAGGGCAGCAG,3.14
UUUUUAUGUAGGCGAGCUAACACAGUGUACCUAAUUGCAGAAUUAUCUGAUUAAUUUGUAAUAGAUAAGUUGUAUAACAUUUUCAUAUCUUAAAAUGUUUUUUAGAUCAAUCUUGAAGUG,0.686
UUCCUUCUGCAUAAGGUUUUUGUAGUGUGAUGUCUUAAUCAUAGUCUACCAUCAAAUACUUUAGGAGUAUCCUUAAUGUUUAGAUAGAAUAUUAGCAGCAUGCAAUAAUUACAUCCUAAG,5.2
CGCCAGCAGAUGAAGGAUGCAGCAGUCUCGGCCCUGGCUGCUCUAUGCAGUGAAUAUUACAUGAAGGAGCCGGGGGAGGCAGAUCCCGCAAUUCAGGAGGAGCUGAUCACGCAGUACCUG,0.12
GAUAUCCCACUGUUCCCCGUGCAGACAAAAUACAUGGAUGUGGUCAAGGAGCGAAUCCGUUUAGCUCGACAGAUUGAGAAAUCUGAGUAUCGGAACUUCCAGGCUUGCCUGCACAACUCU,0.0908
CAUGGAAAAAGAUAAACACAGUCAUUUCUACAACCAAAAAAGUGACUUCAGAAUUGAGCAUAGUAUGCUAGAAGAAUUGGAAAAUAAAUUGAUUCACAGCAGGAAAACAGAAAGAGCAAA,0.456
CCAACACUUUGCUCCCUGGCAACCCCUAAUAUUUGGGAUCUCUCAAUGCUAUUUGCCUUCAUUAGCUUGCUCGUUAUGCUUCCCACUUGGUGGAUUGUGUCUUCCUGGCUGGUAUGGGGA,0.246
CGGCCGUGGUGUAUUGUGGUCACUGCUGCUCCCUCUCCUUUACCCCCCACCCCCAUUUUGUUUUUGUAAACCAUCCCGUCCACAGUUGUCAGUUGUGAAGAGGGGACCAGAUGUCACUCU,0.267
GUCAAUCACUUUGACAAGUCUCCUGGAAGGAACAGCCAGCGGGAGUUGAAACCUUUUUCCAUUUGGUCUCGUGGCAAAGGCAGAGAUUGCUCCAGCAGCUCCACACAAUAUGACGUGUUC,0.234
GUCAACAUAGAGUGCGUGGAGUGCUGCGGCAGGGACCUCUACGUGGGCACCAACGACUGCUUCGUCUACCACUUCCUGUUGGAGGAGAGGCCAGUGCCUGCUGGGCCAGCCACGUUCACU,0.192
